Results from different studies.
Parts stem from different laboratories: compare values within a part only. “And” joins repeats or separate records; there may be more than shown.
Chain of UniProt P51617 (whole entry, looked up): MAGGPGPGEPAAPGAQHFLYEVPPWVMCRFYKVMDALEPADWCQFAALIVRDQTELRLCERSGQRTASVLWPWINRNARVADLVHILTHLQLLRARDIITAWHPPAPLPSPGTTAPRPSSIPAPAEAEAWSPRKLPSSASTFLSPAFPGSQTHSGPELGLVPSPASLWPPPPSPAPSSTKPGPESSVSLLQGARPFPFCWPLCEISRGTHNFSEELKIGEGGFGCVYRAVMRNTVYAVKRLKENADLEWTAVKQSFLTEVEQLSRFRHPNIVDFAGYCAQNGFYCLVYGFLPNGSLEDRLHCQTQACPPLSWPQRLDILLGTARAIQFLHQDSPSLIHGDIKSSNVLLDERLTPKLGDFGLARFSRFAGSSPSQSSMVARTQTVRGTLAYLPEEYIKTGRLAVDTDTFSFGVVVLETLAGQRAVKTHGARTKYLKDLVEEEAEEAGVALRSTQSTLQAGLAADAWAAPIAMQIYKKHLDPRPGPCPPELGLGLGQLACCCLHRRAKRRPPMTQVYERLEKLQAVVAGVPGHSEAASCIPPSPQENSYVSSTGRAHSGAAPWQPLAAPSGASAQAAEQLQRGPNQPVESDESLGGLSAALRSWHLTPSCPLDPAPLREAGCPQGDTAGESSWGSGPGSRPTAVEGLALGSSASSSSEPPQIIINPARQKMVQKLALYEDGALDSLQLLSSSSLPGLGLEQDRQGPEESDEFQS
Chain of UniProt Q9BQI3 (whole entry, looked up): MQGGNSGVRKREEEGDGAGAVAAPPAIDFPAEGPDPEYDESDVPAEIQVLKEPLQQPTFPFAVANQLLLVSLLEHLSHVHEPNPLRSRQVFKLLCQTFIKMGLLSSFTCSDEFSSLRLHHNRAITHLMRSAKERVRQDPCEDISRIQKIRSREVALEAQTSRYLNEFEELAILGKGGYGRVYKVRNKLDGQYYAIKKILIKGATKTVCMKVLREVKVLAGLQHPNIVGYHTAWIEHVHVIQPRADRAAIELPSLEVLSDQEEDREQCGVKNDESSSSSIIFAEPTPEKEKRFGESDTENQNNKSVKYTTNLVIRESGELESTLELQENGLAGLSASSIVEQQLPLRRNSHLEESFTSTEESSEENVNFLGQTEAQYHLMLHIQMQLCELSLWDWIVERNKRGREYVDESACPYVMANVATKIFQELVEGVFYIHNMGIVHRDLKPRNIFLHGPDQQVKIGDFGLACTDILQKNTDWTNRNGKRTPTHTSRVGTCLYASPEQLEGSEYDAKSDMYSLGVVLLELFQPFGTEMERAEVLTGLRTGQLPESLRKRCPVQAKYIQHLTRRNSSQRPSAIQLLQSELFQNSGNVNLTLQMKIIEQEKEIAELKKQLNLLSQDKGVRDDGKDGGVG
Chain of UniProt Q96GD4 (whole entry, looked up): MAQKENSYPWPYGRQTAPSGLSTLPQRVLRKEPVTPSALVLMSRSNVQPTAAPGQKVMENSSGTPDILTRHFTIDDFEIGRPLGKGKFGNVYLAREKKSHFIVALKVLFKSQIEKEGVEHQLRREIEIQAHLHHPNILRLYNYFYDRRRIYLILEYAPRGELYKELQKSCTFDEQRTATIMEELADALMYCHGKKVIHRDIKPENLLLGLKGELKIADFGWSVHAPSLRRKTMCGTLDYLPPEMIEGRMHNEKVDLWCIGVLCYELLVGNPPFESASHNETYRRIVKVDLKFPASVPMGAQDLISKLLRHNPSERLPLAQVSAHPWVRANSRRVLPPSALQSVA
Chain of UniProt P48736 (whole entry, looked up): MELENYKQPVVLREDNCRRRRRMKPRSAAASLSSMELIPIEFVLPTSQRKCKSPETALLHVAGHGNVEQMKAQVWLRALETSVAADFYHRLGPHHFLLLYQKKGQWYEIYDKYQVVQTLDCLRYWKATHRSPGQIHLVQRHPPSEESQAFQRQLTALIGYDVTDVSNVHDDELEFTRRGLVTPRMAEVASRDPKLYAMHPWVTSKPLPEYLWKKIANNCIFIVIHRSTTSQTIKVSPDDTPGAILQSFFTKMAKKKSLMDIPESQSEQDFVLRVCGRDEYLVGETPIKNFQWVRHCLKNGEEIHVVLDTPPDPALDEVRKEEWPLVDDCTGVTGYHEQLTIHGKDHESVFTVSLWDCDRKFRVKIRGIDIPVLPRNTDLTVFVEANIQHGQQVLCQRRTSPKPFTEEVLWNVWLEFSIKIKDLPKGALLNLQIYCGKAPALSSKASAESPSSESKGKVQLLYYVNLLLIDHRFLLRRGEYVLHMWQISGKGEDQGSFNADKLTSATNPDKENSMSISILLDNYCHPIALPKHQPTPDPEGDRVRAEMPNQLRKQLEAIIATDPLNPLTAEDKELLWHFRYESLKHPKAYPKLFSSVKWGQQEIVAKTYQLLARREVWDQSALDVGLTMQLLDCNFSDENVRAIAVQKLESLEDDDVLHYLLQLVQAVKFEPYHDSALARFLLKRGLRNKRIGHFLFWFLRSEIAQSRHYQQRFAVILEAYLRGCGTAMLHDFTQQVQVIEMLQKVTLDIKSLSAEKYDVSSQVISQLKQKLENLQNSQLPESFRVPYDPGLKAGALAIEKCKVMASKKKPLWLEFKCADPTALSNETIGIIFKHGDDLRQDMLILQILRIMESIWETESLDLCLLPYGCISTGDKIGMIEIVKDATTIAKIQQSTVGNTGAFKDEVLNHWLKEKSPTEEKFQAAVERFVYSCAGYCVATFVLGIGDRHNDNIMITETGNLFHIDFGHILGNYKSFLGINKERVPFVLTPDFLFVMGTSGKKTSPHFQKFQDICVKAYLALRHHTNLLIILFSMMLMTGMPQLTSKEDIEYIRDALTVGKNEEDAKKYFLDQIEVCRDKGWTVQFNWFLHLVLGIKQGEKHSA
Chain of UniProt P42336 (whole entry, unmodified, looked up): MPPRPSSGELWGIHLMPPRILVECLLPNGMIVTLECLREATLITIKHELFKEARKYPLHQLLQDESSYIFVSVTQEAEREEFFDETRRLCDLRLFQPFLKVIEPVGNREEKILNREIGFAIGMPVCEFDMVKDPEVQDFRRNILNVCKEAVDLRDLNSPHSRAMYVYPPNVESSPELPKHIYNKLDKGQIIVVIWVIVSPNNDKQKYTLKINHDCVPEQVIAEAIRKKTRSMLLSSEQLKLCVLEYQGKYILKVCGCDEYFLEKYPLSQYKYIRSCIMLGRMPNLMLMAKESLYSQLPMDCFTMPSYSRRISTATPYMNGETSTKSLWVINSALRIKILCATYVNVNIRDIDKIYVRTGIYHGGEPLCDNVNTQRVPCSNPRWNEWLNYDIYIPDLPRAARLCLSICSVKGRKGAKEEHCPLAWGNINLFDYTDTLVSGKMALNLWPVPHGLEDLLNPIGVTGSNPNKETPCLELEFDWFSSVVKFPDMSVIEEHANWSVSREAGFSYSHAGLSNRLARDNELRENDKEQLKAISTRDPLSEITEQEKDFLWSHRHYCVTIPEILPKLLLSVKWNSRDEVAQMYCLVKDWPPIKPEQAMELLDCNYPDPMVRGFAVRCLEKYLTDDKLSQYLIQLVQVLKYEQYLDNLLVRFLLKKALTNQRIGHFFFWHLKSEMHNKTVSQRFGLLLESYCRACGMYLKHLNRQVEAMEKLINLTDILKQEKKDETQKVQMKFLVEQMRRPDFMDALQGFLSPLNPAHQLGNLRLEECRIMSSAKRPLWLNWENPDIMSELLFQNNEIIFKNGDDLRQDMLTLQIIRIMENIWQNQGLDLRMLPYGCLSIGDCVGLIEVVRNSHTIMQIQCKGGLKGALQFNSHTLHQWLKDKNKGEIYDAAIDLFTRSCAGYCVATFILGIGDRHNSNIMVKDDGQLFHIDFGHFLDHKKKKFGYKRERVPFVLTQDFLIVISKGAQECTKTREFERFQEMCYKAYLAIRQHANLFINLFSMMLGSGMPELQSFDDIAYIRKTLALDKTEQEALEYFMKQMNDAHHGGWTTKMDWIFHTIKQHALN
Chain of UniProt Q8TDC3 (whole entry, looked up): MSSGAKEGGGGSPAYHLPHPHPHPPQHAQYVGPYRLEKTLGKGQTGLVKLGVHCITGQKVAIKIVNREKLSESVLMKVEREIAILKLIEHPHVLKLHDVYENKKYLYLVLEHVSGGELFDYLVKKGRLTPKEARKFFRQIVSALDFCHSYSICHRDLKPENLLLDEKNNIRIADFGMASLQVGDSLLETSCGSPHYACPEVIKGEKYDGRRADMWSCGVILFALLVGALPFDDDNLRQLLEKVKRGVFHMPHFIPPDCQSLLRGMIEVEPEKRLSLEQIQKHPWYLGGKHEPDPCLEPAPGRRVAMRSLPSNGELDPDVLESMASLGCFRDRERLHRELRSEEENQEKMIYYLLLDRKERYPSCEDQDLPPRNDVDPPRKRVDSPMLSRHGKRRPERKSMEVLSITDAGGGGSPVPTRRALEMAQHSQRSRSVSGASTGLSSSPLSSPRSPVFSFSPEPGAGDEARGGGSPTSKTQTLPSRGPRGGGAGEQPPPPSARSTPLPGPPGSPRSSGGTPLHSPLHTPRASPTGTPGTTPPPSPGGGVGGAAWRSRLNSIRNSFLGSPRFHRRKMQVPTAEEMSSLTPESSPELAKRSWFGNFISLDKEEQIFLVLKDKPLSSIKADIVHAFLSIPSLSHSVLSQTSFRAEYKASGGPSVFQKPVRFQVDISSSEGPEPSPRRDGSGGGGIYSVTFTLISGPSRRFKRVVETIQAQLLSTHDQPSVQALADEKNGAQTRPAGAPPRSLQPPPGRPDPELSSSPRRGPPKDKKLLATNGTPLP

Sample 1
Target: Cyclin-dependent kinase 4, with cyclin D3 (CDK4, Homo sapiens, UniProt P11802)
Chain of UniProt P11802 (whole entry, looked up): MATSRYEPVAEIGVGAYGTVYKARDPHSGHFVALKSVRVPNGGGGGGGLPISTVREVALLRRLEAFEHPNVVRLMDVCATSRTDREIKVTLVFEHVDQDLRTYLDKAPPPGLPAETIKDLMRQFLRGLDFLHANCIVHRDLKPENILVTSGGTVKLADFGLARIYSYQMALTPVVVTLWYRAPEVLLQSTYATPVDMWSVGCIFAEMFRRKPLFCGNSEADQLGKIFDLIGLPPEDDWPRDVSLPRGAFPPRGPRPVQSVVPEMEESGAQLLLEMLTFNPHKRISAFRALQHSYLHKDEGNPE
Read-out: enzyme activity
Action: inhibitor
Tested at: 0.5 µM
Baseline: control
Quantity: remaining activity
CO[C@H]1C[C@@H]2CC[C@@H](C)[C@@](O)(O2)C(=O)C(=O)N2CCCC[C@H]2C(=O)O[C@H]([C@H](C)C[C@@H]2CC[C@@H](O)[C@H](OC)C2)CC(=O)[C@H](C)/C=C(\C)[C@@H](O)[C@@H](OC)C(=O)[C@H](C)C[C@H](C)/C=C/C=C/C=C/1C: 104%
O=C1NC(=O)C(c2cn(CCCO)c3ncccc23)=C1c1cnccn1: 95.9%
Cc1nc(-c2ccccc2)c(-c2ccncc2)o1: 107%
Nc1ccc2ncnc(NCCc3ccc(Oc4ccccc4)cc3)c2c1: 109%
Nc1ncnc2n[nH]c(Nc3ccc(F)cc3)c12: 111%
Nc1[nH]nc2nc3ccccc3nc12: 94.8%
Cn1c2ccccc2c2c3c(c4c5ccccc5n(CCC#N)c4c21)CNC3=O: 44.5%
O=S(=O)(c1cccc2cnccc12)N1CCCNCC1: 98.5%
COc1cc2ncnc(Nc3ccc(Oc4ccccc4)cc3)c2cc1OC: 98.4%
Cc1ccc(NC(=O)c2ccc(CN3CCN(C)CC3)cc2)cc1Nc1nc(-c2cccnc2)cs1: 115%
CN(C)c1ccc(C=C2C(=O)Nc3ccccc32)cc1: 98.9%
COc1ccc(CNC(=O)Nc2ncc([N+](=O)[O-])s2)cc1: 94.4%
O=C(O)c1ccc2c3c1cccc3c(=O)n1c3ccccc3nc21: 102%
O=C(CCCc1ccc(-c2ccccc2F)cc1)Nc1ccc(O)cc1: 110%
Cn1sc(=O)n(Cc2ccccc2)c1=O: 114%

Sample 2
SMILES: O=C(NCCCC1CCCCC1)c1ccc(CNC(=O)c2cnn(-c3ccccc3)c2C(F)(F)F)cc1
Read-out: cell-free assay
Technique: competition with immobilised ligand
Tested at: 0.1 µM
Quantity: remaining binding
BRSK1 (Homo sapiens, UniProt Q8TDC3): 100%
DAPK1 (Homo sapiens, UniProt P53355): 100%
EIF2AK1 (Homo sapiens, UniProt Q9BQI3): 95%
PIK3CA (Homo sapiens, UniProt P42336, E542K): 74%
PIK3CG (Homo sapiens, UniProt P48736): 95%
TSSK1B (Homo sapiens, UniProt Q9BXA7): 94%
IRAK1 (Homo sapiens, UniProt P51617): 100%
KIT (Homo sapiens, UniProt P10721, D816H): 78%
HASPIN (Homo sapiens, UniProt Q8TF76): 100%
Aurora kinase B (AURKB, Homo sapiens, UniProt Q96GD4): 95%
CAMK2A (Homo sapiens, UniProt Q9UQM7): 100%
EGFR (Homo sapiens, UniProt P00533, L858R): 100%
CDK3 (Homo sapiens, UniProt Q00526): 100%

Sample 3
Host: mouse
Medium: microsomes or S9
Tested at: 2 µM
Time: 0.5 h
Quantity: remaining compound
CC(Cc1ccccc1)NC(=O)C1CCCNC1=O (centres unmarked): 85%
COc1cc2ccccc2cc1C(=O)N(CCN(C)C)c1nc2c(F)cccc2s1: 3.15%
CN(C)CCCNCc1cccc(Oc2nnnn2-c2ccccc2)c1: 30%
CCC(=O)N1CCCC1c1nc2ccccc2n1CC(=O)N(c1ccccc1)C(C)C (centres unmarked): 3.49%
O=C(CN1CCOCC1)N1CCC(c2nc(-c3ccccc3)no2)C1 (centres unmarked): 66.1%
Cc1nc2n(n1)CC(Nc1ccc3nccnc3n1)CC2 (centres unmarked): 81.8%
Cc1csc(C2=C(N)N(CC(C)C)CC2=O)n1: 26.6%
Cc1cc(NC(=O)c2cc(C(=O)Nc3cc(C)n(C(C)C)n3)n(C)n2)nn1C(C)C: > 100%
Nc1nc(F)c2ncn(C3CC(O)C(CO)O3)c2n1 (centres unmarked): 37.7%

Further values, each from its own experiment
CC(=O)N[C@@H](Cc1c[nH]c2ccccc12)C(=O)N[C@@H](CCC(=O)C=[N+]=[N-])C(=O)OC(C)C — riboflavin level (UPLC-MS/MS; EL4 tumor, C57BL/6 CES1-/- mice, tumor; subcutaneous, 0.3 mg/kg DON equivalent daily, 5 days; higher = more metabolite): 364000 a.u. and 377000 a.u. and 450000 a.u. and 300000 a.u. and 125000 a.u. and 400000 a.u.
